Measurements from different studies.
Compare with care: the assays were run in different laboratories. ± gives the spread as reported.

Structure (SMILES)	assay	system	conditions	scale	endpoint	result
Cc1ccc(-c2ccc(-c3cc4sccc4o3)cn2)nc1		aqueous HEPES buffer	pH 7.4, zinc-free ligand, added: quinine bisulfate reference		fluorescence quantum yield	0.54
CC[C@@H](C)N([11CH3])C(=O)c1nc(-c2ccccc2)c2ccccc2n1	ultrafiltration	rhesus monkey, plasma	TSPO preblock scan		plasma free fraction	0.186 ± 0.001
NCCCC(=O)OCC(=O)c1cc(F)c(O)c(F)c1F.O=C(O)C(F)(F)F	photolysis, item: rearranged acid appearance	aqueous HEPES buffer with LiClO4	pH 8.2		quantum yield	< 0.01
COc1cc(C)c(Cc2ccc(O)cc2)cc1[C@@H]1S[C@H](CO)[C@@H](O)[C@H](O)[C@H]1O		Japanese T2DM patients, urine	1 mg luseogliflozin, day 1, once daily	relative to: dose	urinary excretion 0-24 h	5.86 ± 0.674%
CC(C)[C@H](NC(=O)CNC(=O)[C@H](CCC(N)=O)NC(=O)[C@H](C)N)C(=O)O	LC-MS/MS	human, male, plasma	intravenous, 10 mg/kg three times daily, day 2, first dose, 10 min infusion, geometric mean		half-life	3.6 min
[2H]C([2H])([2H])NC(=O)c1ccc(N2C(=S)N(c3ccc(C#N)c(C(F)(F)F)c3)C(=O)C2(C)C)cc1F		male human, plasma	oral, 160 mg, single dose, fasted		MRT	222 h
CC1=C(C=O)C(C)(C)CC=C1		rat blood	1000 nM, 60 min		blood-to-plasma ratio	0.24 ± 0.03
O=C(O)/C=C/c1ccc(NC(=O)C2(NC(=O)c3ccc4c(C5CCCCC5)c5n(c4c3)CCOc3ccccc3-5)CCCC2)cc1		rat	intravenous, 2 mg/kg		clearance	17 mL/min/kg
Cn1c(=O)oc2ccc(-c3ccc(CC(C#N)NC(=O)C4CNCCCO4)c(F)c3)cc21 (stereo not drawn)		human	oral, 10 mg once daily, treatment-related AE, multiple ascending dose		ALT increased incidence	11.1%
O=C([O-])CN1CCN(CC(=O)[O-])CCN(CC(=O)NC[C@H]2CC[C@H](C(=O)N[C@H](Cc3cnc4ccccc4c3)C(=O)NCCCC[C@H](NC(=O)N[C@@H](CCC(=O)O)C(=O)O)C(=O)O)CC2)CCN(CC(=O)[O-])CC1.[64Cu+2]		human patient	4 mCi		effective dose	3.6 mSv
Nc1ncnc2c1ncn2[C@@H]1O[C@H](COP(=O)(O)O)[C@@H](O)[C@H]1F		human liver S9	10 µM, 1 h, pH 7.4, 37 °C		metabolic loss	~50%
CC(F)C(=O)NCCOCCOCCOCC(=O)N[C@@H](CCC(=O)NCCCC[C@@H]1NC(=O)[C@@H](Cc2ccc(O)cc2)NC(=O)[C@H](CC(=O)O)NC(=O)CNC(=O)[C@H](CCCNC(=N)N)NC1=O)C(=O)NCCCC[C@@H]1NC(=O)[C@@H](Cc2ccc(O)cc2)NC(=O)[C@H](CC(=O)O)NC(=O)CNC(=O)[C@H](CCCNC(=N)N)NC1=O (stereo partly drawn) [fluorine-18 labelled]		female athymic nude mouse, U-87 MG xenograft, kidney	dose not given, 1 h		kidney uptake	2.5 ± 0.4 %ID/g
CC(C)c1cnc(-c2cc(Cl)ccc2F)cc1Nc1ccncc1C(=O)NC(CO)CO	item: any event, worst grade	human patients	oral, dose not given, grade 3		patients with related SAE	9.5%
COc1ccc(/C=C/c2ccc(-c3ccc(C)cn3)nc2)cc1	TCSPC	CHCl3			fluorescence lifetime	0.7 ns
CC(C)(O)c1ncc([S@](N)(=O)=NC(=O)Nc2c3c(cc4c2CCC4)CCC3)s1		healthy human	oral, 10 mg once daily, day 14, capsule formulation, geometric mean		Cmax	1040 ng/mL
CCCC(CCC)NC(=O)c1ccc(OS(=O)(=O)O)c(OC)c1		male Sprague-Dawley rats, plasma	oral, 50 mg/kg of parent drug	relative to: 50 over 20 mg/kg dose	Cmax ratio	2.19
NC[C@@H](C(=O)Nc1ccc(-c2cn[nH]c2)cc1)c1ccccc1	OECD 405 eye irritation	New Zealand White rabbit, eye	topical, 0.1%, 96 h (day 5), scale 0 to 3	direction not given	conjunctival redness score	0
CN(C)c1cccc2c(S(=O)(=O)NCCCCCC(=O)NO)cccc12	fluorescence				emission wavelength	500 nm
C#CCOc1ccc(/C=C2\SC(=O)N(CC(=O)NCc3ccccc3)C2=O)cc1	inverse Kirkwood-Buff integrals	binary solvent mixture	298.15 K, mole fraction x1 0.80		Kirkwood-Buff integral G2,3	-365 cm³/mol
Cc1ccc(OCC(=O)N(Cc2cccs2)c2ccn[nH]2)cc1		human liver microsomes	10 µM, 60 min, added: NADPH		remaining compound	~3.15%
COc1cc(NC(C)=O)c2c(c1O)-c1c(OC)c(OC)cc3c1C(C2)N(C)CC3 (stereo not drawn)		rat kidney homogenate	0.5 µg/mL, 40 d, -20 °C, long-term storage		remaining compound	100 ± 1.7%

Structure (SMILES)	assay	system	conditions	scale	endpoint	result
CCc1cc(Nc2nc(-c3ccc(-n4cnc(C)c4)c(F)c3)cs2)c(C)cc1C		human, both sexes, plasma	oral, 400 mg once daily, day 14, multiple dose, geometric mean		terminal elimination rate constant	1.81e-05 s⁻¹
Cc1[nH]c(/C=C2\C(=O)Nc3ccc(F)cc32)c(C)c1NC(=O)CCN1CCN(C)CC1		dog plasma	80 ng/mL, 24 h in injector after processing, 4 °C		accuracy deviation	-8.39%
NCCCC(=O)OCC(=O)c1ccc(O)c(F)c1F.O=C(O)C(F)(F)F	photolysis, item: GABA appearance	aqueous HEPES buffer with LiClO4	pH 7.3		quantum yield	0.11
O=S(=O)(O)c1cc(O)c(O)c(S(=O)(=O)O)c1	Stokes-Einstein equation	1 M H2SO4			hydrodynamic radius	5.8 Å
CN(C)c1ccc(-c2nc3ccc(OCCCCCN4CCN5CCN(CC4)CC(=O)[O][Al]([18F])[O]C(=O)C5)cc3s2)cc1		ICR mouse	intravenous, dose not given, 30 min		stomach uptake	2.81 ± 2.13 % injected dose/organ
CC[C@H](C)[C@H](NC(=O)[C@H](CC(C)C)NC(=O)[C@H](Cc1c[nH]c2ccccc12)NC(=O)[C@H](C)NC(=O)[C@@H](NC(=O)[C@H](Cc1ccccc1)NC(=O)[C@H](CC(=O)O)NC(=O)[C@H](CCCNC(=N)N)NC(=O)[C@H](C)NC(=O)[C@H](C)NC(=O)[C@H](CC(C)C)NC(=O)[C@H](C)NC(=O)[C@H](CC(=O)O)NC(=O)[C@H](CC(C)C)NC(=O)[C@@H](NC(=O)[C@@H](NC(=O)[C@H](C)NC(=O)[C@H](CC(C)C)NC(=O)[C@H](CCC(=O)O)NC(=O)[C@H](CO)NC(=O)[C@H](CO)NC(=O)[C@H](Cc1ccccc1)NC(=O)[C@@H](NC(=O)CNC(=O)[C@H](CCC(=O)O)NC(=O)CNC(=O)[C@@H](N)Cc1cnc[nH]1)[C@@H](C)O)[C@@H](C)O)[C@@H](C)CC)[C@@H](C)CC)C(=O)N[C@@H](C)C(=O)N[C@H](C(=O)N[C@@H](CCCCN)C(=O)N[C@H](C(=O)N[C@H](C(=O)N[C@@H](CC(=O)O)C(=O)N[C@@H](CCCCN)C(=O)N[C@@H](CCCCN)C(=O)N[C@@H](CCCCN)C(=O)N[C@@H](CCCCN)C(=O)N[C@@H](CCCCN)C(=O)N[C@@H](CCCCN)C(N)=O)[C@@H](C)O)[C@@H](C)CC)[C@@H](C)O		healthy humans, plasma	subcutaneous, 5 mg once weekly, 6 doses, day 36, mean		terminal half-life	228 h
CCCC[C@H](NC(=O)CNC(=O)CNC(=O)CN1CCN(CC(=O)O)CCN(CC(=O)O)CCN(CC(=O)O)CC1)C(=O)N[C@H]1CC(=O)NCCCC[C@@H](C(N)=O)NC(=O)[C@H](Cc2c[nH]c3ccccc23)NC(=O)[C@H](CCCNC(=N)N)NC(=O)[C@@H](Cc2ccccc2)NC(=O)[C@H](Cc2c[nH]cn2)NC1=O [copper-64 labelled]		female C57 mouse, B16/F1 melanoma	intravenous, 0.037 MBq, 4 h	relative to: tumour over lung	uptake ratio	1.2
CCCC1OC2CC3C4CCC5=CC(=O)C=CC5(C)C4C(O)CC3(C)C2(C(=O)COC(=O)CN(CC)CC)O1 (stereo not drawn)		rat lung homogenate	200 µg/mL, 37 °C		time to complete hydrolysis	≤ 2 h
O=C(NCCCN(CCCCN(CCCNC(=O)c1cccc(=O)n1[O-])C(=O)c1cccc(=O)n1[O-])C(=O)c1cccc(=O)n1[O-])c1cccc(=O)n1[O-].[89Zr+4]	radio-TLC	PBS	7 d, pH 7.4, 37 °C, added: Zn^2+ 10-fold excess		intact complex	98.3 ± 2.4%
Oc1ccc2ccccc2c1/N=N/c1ccccc1		rat whole blood	16.0 µg/L, 30 days, -20 °C, long-term storage		stability deviation	-0.2%
CC(C)[C@H](NC(=O)[C@@H]1CCCN1C(=O)[C@H](CCCNC(=N)N)NC(=O)[C@H](CS)NC(=O)[C@H](Cc1c[nH]c2ccccc12)NC(=O)[C@H](CCCNC(=N)N)NC(=O)[C@@H](Cc1ccccc1)NC(=O)[C@H](Cc1c[nH]cn1)NC(=O)[C@H](CCC(=O)O)NC(=O)[C@H](CS)NC(=O)[C@H](CS)NC(=O)CNC(=O)[C@@H]1CC(=O)N[C@@H](CCCNC(=N)N)C(=O)NCC(=O)N[C@@H](CC(=O)O)C(=O)N[C@H](Cc2ccc(O)cc2)C(=O)N1)C(N)=O [technetium-99m labelled]		C57 mouse, female, B16/F1 melanoma, brain	intravenous, 0.037 MBq, 24 h		tissue uptake	0.05 ± 0.02 %ID/g
Oc1cccc(-c2cccc(O)n2)n1.[Cl-].[Cl-].[Ru+2].c1cnc2c(c1)c1c(c3cccnc32)OCCO1.c1cnc2c(c1)c1c(c3cccnc32)OCCO1	shake flask	octanol/acetate buffer	pH 5.00		logD	1.33
[11CH3]c1ccc2nc(C3CCC3)n(-c3ccc4[nH]ncc4c3)c2n1	extrapolated from mouse biodistribution	human female			effective dose	4.9 µSv/MBq
CC(C)C[C@@H](NC(=O)[C@H](NC(=O)[C@H]1CCCN1)[C@H](C)O)C(=O)N[C@H](Cc1c[nH]cn1)C(=O)N[C@@H](C(=O)N[C@H](Cc1c[nH]cn1)C(=O)N[C@H](CC(N)=O)C(=O)N[C@H](CCCNC(=N)N)C(=O)N[C@H](CCCNC(=N)N)C(=O)N[C@H](CCCNC(=N)N)C(=O)N[C@H](CCCNC(=N)N)C(=O)N[C@H](CCCNC(=N)N)C(N)=O)[C@H](C)O		Beagle dog, CSF	oral, 50 mg/kg		AUC(0-tlast)	614 ± 592 ng·h/mL
CC1(C)C(=CC=C(C=CC2=[N+](CCC[N+](C)(C)C)c3ccc(S(=O)(=O)[O-])cc3C2(C)C)Oc2ccc(CCC(=O)[O-])cc2)N(CCC[N+](C)(C)C)c2ccc(S(=O)(=O)[O-])cc21		100% serum	pH 7.4		quantum yield	19.4%
COCCOCCOCCOc1ccc(/C=C/c2c(I)c(C)c3n2[B-](F)(F)[N+]2=C(C)C(I)=C(C)C2=C3c2cc(OC)cc(OC)c2)cc1		dichloromethane			emission maximum	611 nm
CCCCCCCCCCCCCCCC(=O)N[C@@H](CCCCNC(=O)[C@H](CCCCNC(=O)CCC(=O)NCCN(C)CCNc1ccnc2cc(C(F)(F)F)ccc12)NC(=O)CCC(=O)NCCN(C)CCNc1ccnc2cc(C(F)(F)F)ccc12)C(=O)N[C@@H](CS)C(=O)NCC(=O)NCC(=O)NCC(=O)N[C@@H](C)C(=O)N[C@@H](CCCNC(=N)N)C(=O)N[C@@H](CCCCN)C(=O)N[C@@H](CCCCN)C(=O)N[C@@H](C)C(=O)N[C@@H](C)C(=O)N[C@@H](CCCCN)C(=O)N[C@@H](C)C(=O)N[C@@H](C)C(=O)N[C@@H](CCCNC(=N)N)C(=O)N[C@@H](CCCCN)C(=O)N[C@@H](CCCCN)C(=O)N[C@@H](C)C(=O)N[C@@H](C)C(=O)N[C@@H](CCCCN)C(=O)N[C@@H](C)C(=O)N[C@@H](C)C(=O)N[C@@H](CCCNC(=N)N)C(=O)N[C@@H](CCCCN)C(=O)N[C@@H](CCCCN)C(=O)N[C@@H](C)C(=O)N[C@@H](C)C(=O)N[C@@H](CCCCN)C(=O)N[C@@H](C)C(=O)N[C@@H](C)C(=O)N[C@@H](CCCNC(=N)N)C(=O)N[C@@H](CCCCN)C(=O)N[C@@H](CCCCN)C(=O)N[C@@H](C)C(=O)N[C@@H](C)C(=O)N[C@@H](CCCCN)C(=O)N[C@@H](C)C(N)=O	dynamic light scattering	PBS	40 min, 25 °C, 140:1 ratio, added: siRNA		particle diameter	107 ± 3.2 nm
CN1CCC[C@]1(C)/C=C/S(=O)(=O)NC(=O)Nc1c2c(cc3c1CCC3)CCC2		human, plasma	oral, 12.5 mg twice daily, day 14, tau 12 h, multiple ascending dose		AUC(0-tau)	12000 ng·h/mL
N=C(N)NCCC[C@@H]1NC(=O)[C@H](Cc2c[nH]c3ccccc23)NC(=O)[C@@H](CC2CCCCC2)NC(=O)[C@@H]2CCCN2C(=O)[C@@H](NC(=O)CCc2ccccc2)CCCNC1=O		C57BL/6J mice, brain	oral, 1 mg/kg, two-compartment model		distribution rate constant k12	< 0.001 h⁻¹
O=c1nc(NO)ccn1[C@@H]1O[C@H](CO)[C@@H](O)[C@H]1O	RT-PCR, item: CYP1A2	normal rats, liver	oral, 80 mg/kg twice daily, 5 days	relative to: untreated normal rats	mRNA level	< 0.1 fold
NCCCC(=O)OCC(=O)c1ccc(O)c(OC(F)(F)F)c1.O=C(O)C(F)(F)F	photolysis, item: disappearance of compound	aqueous HEPES buffer with LiClO4	pH 8.2		quantum yield	0.02

For quick reference, copied from above:
Structure (SMILES)	assay	system	conditions	scale	endpoint	result
Oc1ccc2ccccc2c1/N=N/c1ccccc1		rat whole blood	16.0 µg/L, 30 days, -20 °C, long-term storage		stability deviation	-0.2%
CC(C)[C@H](NC(=O)[C@@H]1CCCN1C(=O)[C@H](CCCNC(=N)N)NC(=O)[C@H](CS)NC(=O)[C@H](Cc1c[nH]c2ccccc12)NC(=O)[C@H](CCCNC(=N)N)NC(=O)[C@@H](Cc1ccccc1)NC(=O)[C@H](Cc1c[nH]cn1)NC(=O)[C@H](CCC(=O)O)NC(=O)[C@H](CS)NC(=O)[C@H](CS)NC(=O)CNC(=O)[C@@H]1CC(=O)N[C@@H](CCCNC(=N)N)C(=O)NCC(=O)N[C@@H](CC(=O)O)C(=O)N[C@H](Cc2ccc(O)cc2)C(=O)N1)C(N)=O [technetium-99m labelled]		C57 mouse, female, B16/F1 melanoma, brain	intravenous, 0.037 MBq, 24 h		tissue uptake	0.05 ± 0.02 %ID/g
